Measurements gathered from unrelated publications.
Every numbered part comes from another study and shows a few of its results, in no order.
UniProt Q9Y3S1, sequence (whole entry, looked up): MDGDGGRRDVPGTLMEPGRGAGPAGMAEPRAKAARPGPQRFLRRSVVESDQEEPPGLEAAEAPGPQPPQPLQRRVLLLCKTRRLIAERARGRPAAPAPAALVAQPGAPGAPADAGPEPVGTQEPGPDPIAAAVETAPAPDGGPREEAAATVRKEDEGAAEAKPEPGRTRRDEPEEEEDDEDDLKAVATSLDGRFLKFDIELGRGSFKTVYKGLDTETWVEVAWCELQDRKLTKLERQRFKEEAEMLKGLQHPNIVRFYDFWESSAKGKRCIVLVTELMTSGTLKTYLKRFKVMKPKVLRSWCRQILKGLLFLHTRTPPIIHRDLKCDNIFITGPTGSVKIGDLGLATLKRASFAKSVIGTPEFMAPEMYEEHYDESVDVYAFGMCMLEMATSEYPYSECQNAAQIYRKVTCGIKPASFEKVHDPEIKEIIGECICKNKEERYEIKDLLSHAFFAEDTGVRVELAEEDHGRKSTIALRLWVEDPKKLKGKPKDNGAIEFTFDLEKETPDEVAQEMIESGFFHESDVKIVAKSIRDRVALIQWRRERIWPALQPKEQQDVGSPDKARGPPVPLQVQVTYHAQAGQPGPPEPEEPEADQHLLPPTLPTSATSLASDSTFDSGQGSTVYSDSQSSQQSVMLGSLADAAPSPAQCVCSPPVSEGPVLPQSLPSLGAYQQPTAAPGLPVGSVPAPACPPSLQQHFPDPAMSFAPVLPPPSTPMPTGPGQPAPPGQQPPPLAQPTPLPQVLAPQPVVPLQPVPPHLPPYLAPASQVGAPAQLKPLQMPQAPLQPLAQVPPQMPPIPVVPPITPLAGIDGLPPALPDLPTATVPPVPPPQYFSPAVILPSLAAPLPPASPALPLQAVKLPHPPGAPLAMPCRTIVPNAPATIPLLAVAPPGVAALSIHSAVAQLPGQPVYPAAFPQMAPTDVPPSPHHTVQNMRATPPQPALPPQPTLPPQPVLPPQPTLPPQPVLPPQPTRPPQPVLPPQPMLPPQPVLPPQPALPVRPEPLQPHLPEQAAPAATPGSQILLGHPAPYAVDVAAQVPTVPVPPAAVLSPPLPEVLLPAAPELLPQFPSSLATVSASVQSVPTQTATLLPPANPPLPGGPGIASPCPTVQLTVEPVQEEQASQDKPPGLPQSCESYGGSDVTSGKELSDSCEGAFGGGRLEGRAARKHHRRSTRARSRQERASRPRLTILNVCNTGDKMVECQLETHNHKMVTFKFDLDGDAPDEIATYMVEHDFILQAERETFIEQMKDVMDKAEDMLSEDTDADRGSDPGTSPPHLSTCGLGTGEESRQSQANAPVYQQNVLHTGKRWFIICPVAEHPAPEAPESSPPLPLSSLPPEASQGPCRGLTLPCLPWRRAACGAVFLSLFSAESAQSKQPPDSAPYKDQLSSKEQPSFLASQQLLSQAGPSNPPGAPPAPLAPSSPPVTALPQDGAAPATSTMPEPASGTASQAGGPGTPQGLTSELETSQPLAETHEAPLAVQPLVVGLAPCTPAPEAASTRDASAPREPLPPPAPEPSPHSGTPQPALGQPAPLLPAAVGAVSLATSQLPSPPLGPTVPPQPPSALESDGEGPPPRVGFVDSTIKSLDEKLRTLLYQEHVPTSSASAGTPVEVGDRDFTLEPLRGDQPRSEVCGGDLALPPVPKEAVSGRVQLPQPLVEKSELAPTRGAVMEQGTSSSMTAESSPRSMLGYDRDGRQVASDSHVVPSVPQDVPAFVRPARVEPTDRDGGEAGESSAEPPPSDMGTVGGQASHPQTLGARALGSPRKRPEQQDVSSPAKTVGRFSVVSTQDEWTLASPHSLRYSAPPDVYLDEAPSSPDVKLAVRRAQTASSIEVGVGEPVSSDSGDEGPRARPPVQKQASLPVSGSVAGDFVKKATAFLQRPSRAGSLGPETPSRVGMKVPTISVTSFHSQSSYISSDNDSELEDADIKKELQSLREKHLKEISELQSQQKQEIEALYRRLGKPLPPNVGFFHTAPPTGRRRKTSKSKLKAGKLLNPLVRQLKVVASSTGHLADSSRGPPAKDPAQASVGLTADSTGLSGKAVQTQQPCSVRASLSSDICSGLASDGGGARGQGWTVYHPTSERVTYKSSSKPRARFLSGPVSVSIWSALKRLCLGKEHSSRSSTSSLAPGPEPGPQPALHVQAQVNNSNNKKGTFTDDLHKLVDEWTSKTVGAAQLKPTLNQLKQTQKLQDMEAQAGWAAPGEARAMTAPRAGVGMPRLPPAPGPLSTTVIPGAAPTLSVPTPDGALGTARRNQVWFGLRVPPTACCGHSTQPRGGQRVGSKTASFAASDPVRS
UniProt Q14164, sequence (whole entry, looked up): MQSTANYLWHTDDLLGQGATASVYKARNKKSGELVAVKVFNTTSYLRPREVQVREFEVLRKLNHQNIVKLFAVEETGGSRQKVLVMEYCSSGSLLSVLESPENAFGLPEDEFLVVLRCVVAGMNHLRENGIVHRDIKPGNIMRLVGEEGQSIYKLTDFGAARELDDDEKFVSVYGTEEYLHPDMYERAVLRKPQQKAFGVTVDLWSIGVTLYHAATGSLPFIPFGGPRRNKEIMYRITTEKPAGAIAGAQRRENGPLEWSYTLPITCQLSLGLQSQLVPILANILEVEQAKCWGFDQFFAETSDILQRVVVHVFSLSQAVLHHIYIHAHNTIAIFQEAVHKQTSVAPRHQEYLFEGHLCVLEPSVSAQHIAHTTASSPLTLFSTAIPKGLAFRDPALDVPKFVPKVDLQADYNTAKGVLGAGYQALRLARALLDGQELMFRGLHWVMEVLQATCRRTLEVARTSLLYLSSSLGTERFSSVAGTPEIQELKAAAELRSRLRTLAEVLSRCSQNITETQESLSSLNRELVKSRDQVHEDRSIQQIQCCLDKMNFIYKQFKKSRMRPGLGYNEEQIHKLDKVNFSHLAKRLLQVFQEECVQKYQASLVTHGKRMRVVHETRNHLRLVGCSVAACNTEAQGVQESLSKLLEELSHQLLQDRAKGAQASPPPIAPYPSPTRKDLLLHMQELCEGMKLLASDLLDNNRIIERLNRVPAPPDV
UniProt P10721, sequence (whole entry, unmodified, looked up): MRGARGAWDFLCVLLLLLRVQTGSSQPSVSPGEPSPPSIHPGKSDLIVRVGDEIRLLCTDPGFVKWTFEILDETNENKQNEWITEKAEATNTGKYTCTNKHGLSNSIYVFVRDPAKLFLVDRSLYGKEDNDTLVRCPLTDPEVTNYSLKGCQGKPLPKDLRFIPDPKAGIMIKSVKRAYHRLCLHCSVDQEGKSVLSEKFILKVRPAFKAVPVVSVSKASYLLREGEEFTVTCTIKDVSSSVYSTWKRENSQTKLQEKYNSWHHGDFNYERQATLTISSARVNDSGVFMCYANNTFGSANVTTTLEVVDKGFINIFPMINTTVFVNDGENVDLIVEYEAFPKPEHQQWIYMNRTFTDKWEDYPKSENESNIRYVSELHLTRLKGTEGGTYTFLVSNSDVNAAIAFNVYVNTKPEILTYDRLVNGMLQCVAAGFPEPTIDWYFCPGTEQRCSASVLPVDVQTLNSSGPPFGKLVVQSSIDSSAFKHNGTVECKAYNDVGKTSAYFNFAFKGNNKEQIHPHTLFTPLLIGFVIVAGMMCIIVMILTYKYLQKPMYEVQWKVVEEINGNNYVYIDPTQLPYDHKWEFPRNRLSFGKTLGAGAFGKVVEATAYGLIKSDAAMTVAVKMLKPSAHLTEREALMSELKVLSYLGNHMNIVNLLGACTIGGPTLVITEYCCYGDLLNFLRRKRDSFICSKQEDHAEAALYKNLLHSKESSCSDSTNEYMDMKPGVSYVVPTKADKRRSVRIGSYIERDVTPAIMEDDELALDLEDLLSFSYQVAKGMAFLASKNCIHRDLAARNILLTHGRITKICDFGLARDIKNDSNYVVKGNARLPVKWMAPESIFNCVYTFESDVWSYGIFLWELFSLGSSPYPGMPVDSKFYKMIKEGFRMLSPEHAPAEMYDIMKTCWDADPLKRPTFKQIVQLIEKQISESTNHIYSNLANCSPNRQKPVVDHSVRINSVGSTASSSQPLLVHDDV
UniProt Q9BWU1, sequence (whole entry, looked up): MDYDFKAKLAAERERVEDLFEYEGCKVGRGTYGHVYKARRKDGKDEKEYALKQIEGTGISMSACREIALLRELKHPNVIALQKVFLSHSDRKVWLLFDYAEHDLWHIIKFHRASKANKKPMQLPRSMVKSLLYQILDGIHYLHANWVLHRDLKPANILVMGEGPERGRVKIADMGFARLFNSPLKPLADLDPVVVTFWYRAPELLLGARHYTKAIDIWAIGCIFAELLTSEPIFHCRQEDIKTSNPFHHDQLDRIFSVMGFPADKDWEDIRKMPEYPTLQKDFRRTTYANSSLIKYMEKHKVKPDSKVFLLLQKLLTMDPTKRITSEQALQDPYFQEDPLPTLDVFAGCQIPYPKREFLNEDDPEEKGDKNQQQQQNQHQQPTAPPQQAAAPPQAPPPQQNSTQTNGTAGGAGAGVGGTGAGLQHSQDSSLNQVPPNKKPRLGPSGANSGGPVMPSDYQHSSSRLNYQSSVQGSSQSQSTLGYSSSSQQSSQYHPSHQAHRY

Series 1 — technique: protein-binding microarray; form: double-stranded DNA, one strand shown; matrix: in vitro; tested at: 940 nM top; notes: 60-bp whole probe; added: salmon DNA 0.4 mg/ml; reference: random background probes; reading: higher = stronger binding; all sequences stand within: GCCTAGCAC … GTCTTGATTCGCTTGACGCTGCTG
Target: Interferon regulatory factor 5, full length, phosphomimetic (IRF5, Homo sapiens, UniProt Q13568-2, residues 1-514, S451D/S453D/S456D/S462D)
Under “fitted relative affinity”, `TTAGGTTTCGACTATCGATTAGTGCTA` is recorded as 9.4 z-score.
`CACGGACTGCTTTTCCTGACGTGCTAG`: “fitted relative affinity” 0.0592 z-score.
Under “fitted relative affinity”, `TTAGGTATCGACTTACGGTTAGTGCTA` is recorded as 5.92 z-score.
`GACGGTTGCCTACTGCTGACGTGCTAG` — result for “fitted relative affinity”: -0.421 z-score.
`GACGTACTGAGACTGGAGACGTGCTAG`: “fitted relative affinity” -0.188 z-score.
For `TGAGATCTCAGTATCGATTAGTGCTAG`, “fitted relative affinity” read 4.92 z-score.
`TTATGTTTCGGTTTCGGTTAGTGCTAG`: “fitted relative affinity” 11.6 z-score.
Under “fitted relative affinity”, `TTGAGTTTTCCTTCATGTGCGTGCTAG` is recorded as 0.757 z-score.

Series 2 — tested at: 1 µM
SMILES: CCS(=O)(=O)c1cc2cc(C[C@](O)(CC(C)(C)c3ccc(F)cc3C(N)=O)C(F)(F)F)[nH]c2cn1
For COQ8A (Homo sapiens, UniProt Q8NI60); cell-free assay, competition with immobilised ligand: remaining binding read 92%.
For WNK2 (Homo sapiens, UniProt Q9Y3S1); cell-free assay, competition with immobilised ligand: remaining binding read 100%.
For MATK (Homo sapiens, UniProt P42679); cell-free assay, competition with immobilised ligand: remaining binding read 100%.
It gave 89% for remaining binding (KIT (Homo sapiens, UniProt P10721, A829P); cell-free assay, competition with immobilised ligand).
The remaining binding was 100% (EGFR (Homo sapiens, UniProt P00533, L858R); cell-free assay, competition with immobilised ligand).
For CDK19 (Homo sapiens, UniProt Q9BWU1); competition binding: remaining binding read 100%.
FLT3 (Homo sapiens, UniProt P36888, D835Y); cell-free assay, competition with immobilised ligand — remaining binding: 100%.
It gave 94% for remaining binding (CDK2 (Homo sapiens, UniProt P24941); cell-free assay, competition with immobilised ligand).
It gave 100% for remaining binding (IKBKE (Homo sapiens, UniProt Q14164); cell-free assay, competition with immobilised ligand).
For MAPK1 (Homo sapiens, UniProt P28482); cell-free assay, competition with immobilised ligand: remaining binding read 100%.
For PRPF4B (Homo sapiens, UniProt Q13523); cell-free assay, competition with immobilised ligand: remaining binding read 98%.

Series 3 — technique: protein-binding microarray; form: double-stranded DNA, one strand shown; matrix: in vitro; tested at: 0.8 µM; notes: whole 60-bp probe, no competitor; reading: higher = stronger binding
Target: Centromere-binding protein 1, full length, N-terminal tag (CBF1, Saccharomyces cerevisiae, UniProt P17106, residues 1-351)
UniProt P17106, sequence (whole entry, looked up): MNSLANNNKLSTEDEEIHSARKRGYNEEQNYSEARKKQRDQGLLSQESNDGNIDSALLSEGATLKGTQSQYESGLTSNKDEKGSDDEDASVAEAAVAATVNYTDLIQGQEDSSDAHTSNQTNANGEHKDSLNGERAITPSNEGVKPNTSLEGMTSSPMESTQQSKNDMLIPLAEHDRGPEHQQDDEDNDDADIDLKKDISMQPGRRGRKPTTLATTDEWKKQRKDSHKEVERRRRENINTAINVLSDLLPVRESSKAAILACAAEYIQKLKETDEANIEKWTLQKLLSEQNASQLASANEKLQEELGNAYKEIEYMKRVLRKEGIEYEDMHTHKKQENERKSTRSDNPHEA
`CTAAATATGGAATGTGTCATGAATACTATCAGCTTCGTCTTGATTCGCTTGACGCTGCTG` gave a fluorescence intensity of 528 a.u.
The fluorescence intensity of `GAACCACACAATCATCATGATGTTTTAGAGCTTTAGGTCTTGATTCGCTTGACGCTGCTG` is reported as 496 a.u.
`TGTACGAAGCTATGTGGGGTGATTATAGTAGTTAGGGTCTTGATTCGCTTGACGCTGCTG` gave a fluorescence intensity of 533 a.u.
For `CTAAATGGTGTCATTCACGTAAAAATGAACGAGTTCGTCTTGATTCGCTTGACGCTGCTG`, the fluorescence intensity was 539 a.u.
With `GAAACGAAAAGTGTAGGCGTGCCACAAATGTCATAGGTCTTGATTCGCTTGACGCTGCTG` the fluorescence intensity was 588 a.u.
For `GAAAAAGGCAAAGATCACATCTTAACCTTTTTGTAGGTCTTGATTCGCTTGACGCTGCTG`, the fluorescence intensity was 515 a.u.
For `GAACTCCGCTTGAATCACGTCTTCTAAGCGGGATAGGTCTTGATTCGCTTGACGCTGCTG`, the fluorescence intensity was 636 a.u.
`TGTACGAAGCTATGGCACGAGAATATAGTAGTTAGGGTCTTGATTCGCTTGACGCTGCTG` has a fluorescence intensity of 620 a.u.

Series 4 — observed: enzyme activity; mode: inhibitor; tested at: 0.5 µM; reference: control
Target: RAF proto-oncogene serine/threonine-protein kinase (RAF1, Homo sapiens, UniProt P04049)
`CC(C)[C@H](CO)Nc1nc(Nc2cc(N)cc(Cl)c2)c2ncn(C(C)C)c2n1` gave a remaining activity of 113%.
`COc1ccc(CNC(=O)Nc2ncc([N+](=O)[O-])s2)cc1` has a remaining activity of 94%.
With `Cc1nc(-c2ccccc2)c(-c2ccncc2)o1` the remaining activity was 92.6%.
With `NCCNc1ncc(C(N)=O)c(Nc2cccc(C(F)(F)F)c2)n1` the remaining activity was 79%.
The remaining activity of `COc1ccc(OC)c2c(=S)c3ccccc3[nH]c12` is reported as 88.2%.
With `COc1cc2ncnc(Nc3ccc(F)c(Cl)c3)c2cc1OCCCN1CCOCC1` the remaining activity was 90.9%.
`Nc1[nH]nc2nc3ccccc3nc12` gave a remaining activity of 94.4%.
For `C#Cc1cccc(Nc2ncnc3cc(OCCOC)c(OCCOC)cc23)c1`, the remaining activity was 93.7%.
The remaining activity of `O=C1NC(=O)C(c2cn(CCCO)c3ncccc23)=C1c1cnccn1` is reported as 100%.
The remaining activity of `N#CC(C#N)=C(N)/C(C#N)=C/c1ccc(O)cc1` is reported as 86.3%.
With `COc1ccc(C(=O)Nc2sc3c(c2C(N)=O)CCCC3)cc1OC` the remaining activity was 94.8%.
The remaining activity of `Nc1ccc2ncnc(NCCc3ccc(Oc4ccccc4)cc3)c2c1` is reported as 98.2%.
`O=c1c2ccccc2[nH]c(=S)n1CCN1CCC(=C(c2ccc(F)cc2)c2ccc(F)cc2)CC1` has a remaining activity of 96.7%.
With `CO[C@H]1C[C@@H]2CC[C@@H](C)[C@@](O)(O2)C(=O)C(=O)N2CCCC[C@H]2C(=O)O[C@H]([C@H](C)C[C@@H]2CC[C@@H](O)[C@H](OC)C2)CC(=O)[C@H](C)/C=C(\C)[C@@H](O)[C@@H](OC)C(=O)[C@H](C)C[C@H](C)/C=C/C=C/C=C/1C` the remaining activity was 97.2%.
With `O=C1NC(=O)C(c2cn(CCCn3ccnc3)c3ccccc23)=C1Nc1ccccc1` the remaining activity was 105%.
With `Cn1sc(=O)n(Cc2ccccc2)c1=O` the remaining activity was 97.2%.

For quick reference, copied from above (series 2):
For PRPF4B (Homo sapiens, UniProt Q13523); cell-free assay, competition with immobilised ligand: remaining binding read 98%.
It gave 89% for remaining binding (KIT (Homo sapiens, UniProt P10721, A829P); cell-free assay, competition with immobilised ligand).
For MATK (Homo sapiens, UniProt P42679); cell-free assay, competition with immobilised ligand: remaining binding read 100%.
FLT3 (Homo sapiens, UniProt P36888, D835Y); cell-free assay, competition with immobilised ligand — remaining binding: 100%.
